Published values of several laboratories.
A part holds a random share of what one study measured. Positions count from the first letter of the parent shown.

Sample 1 — method: RNA Bind-n-Seq; form: RNA; sample: in vitro; concentration: 100 nM; relative to: input RNA pool; reading: higher = stronger binding
Target: RING finger protein unkempt homolog, zinc fingers 1-6, SBP tag (UNK, Homo sapiens, UniProt Q9C0B0, residues 30-357)
UniProt Q9C0B0, sequence (30-357, looked up): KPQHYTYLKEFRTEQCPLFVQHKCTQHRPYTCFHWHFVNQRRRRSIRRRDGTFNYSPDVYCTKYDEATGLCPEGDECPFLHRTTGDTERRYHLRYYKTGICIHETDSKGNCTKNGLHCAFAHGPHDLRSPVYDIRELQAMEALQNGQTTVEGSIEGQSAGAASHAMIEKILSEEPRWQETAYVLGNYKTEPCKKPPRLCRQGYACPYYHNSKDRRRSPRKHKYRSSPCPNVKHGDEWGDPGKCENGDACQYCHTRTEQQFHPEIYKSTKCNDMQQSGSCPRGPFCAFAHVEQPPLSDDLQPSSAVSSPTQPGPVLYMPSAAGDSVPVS
Setting: RNA with constant flanks, vertebrate orthologous sites, ends assumed
All sequences stand within: GGGAGUUCUACAGUCCGACGAUC … CAACAGAGGAUUGAGCAUCA
With `CAGCGGAUUCACUAAUUGGAAGAGCUGCACAUAUAGCUGUUCUUGAUUCAGAAAUAUUUUUAGAAAAAUUCUUUUUAGUUGCUGCCCUCAAAUACUUCCAGUAGGAUAAAAACAUUGCUA` the bound/input enrichment was 1.52 ratio.
With `AUCCUUUCGCACUGUCCCCGGCCAGGGUCGAGGACCAGACGUUUCACUGAGGACCUGCAUUUCAAAUAAUUUUUUUUAAGUUGUUGUAUAGGAAGAGAUGUGCCAAAAACUGCAUCUCAU` the bound/input enrichment was 0.502 ratio.
With `CAAUUCGAUGGUUGAGGGUUCAGAACUCAAAAAGGUUCGCUCCAACUCCAGGAUUUACCACAGGUAUUUUUUACUGGAUGCCGACAUGCAGAGCCUGAGGUGGGAGCCAUCUAAGAAGGA` the bound/input enrichment was 0.14 ratio.
`UUAUAUGGGCCUCGCAGAGUUGAAGUAAUUGAAGAAGAAACUUCACAAUAAUCUUCAUCUUAGUAUCUCUGACUAGGUGUGGAAUAAAUGUUGUUCGUUGAUCAUUUCUAAACCCCAGAG` has a bound/input enrichment of 0.579 ratio.
For `AAGAACAGGAGCAGCAUAGACUGAGCUUUGGGGAAAUGAGCUUUGCUUUUUAUAUUUAAAUAGGAUACUUUUAUAUGAUGGGUGCUUUGAGUGUGAAUGCAGCAGGCUCUCCAUUUCAGA`, the bound/input enrichment was 1.43 ratio.
`UAUAAUUAUGAAAAUCUAAAGGAUUUUUAAUGUUUAAUUUCCCCCAGCAUAUAUAUUAAGACCUCUUUUUUCCAGGCAGAUCAUUCAGAGUGUGCGAGUGUGUGUGCACAUGUUACAAAG` gave a bound/input enrichment of 0.891 ratio.
With `GGCCCAGGGACUCCUGGGGACAGGUGGUGGGGCCCACUGGCCAUAUCAUCGAGGCCGUUUUAGCUUCAUUUUAAAAAAUAAAAAUUUAACAGUGCCCUUAUUAACCUGUAUGACUGAGAU` the bound/input enrichment was 1.85 ratio.
The bound/input enrichment of `GGGGGGCAUUCUGCCCGGGGACGCUGGCUGCUUAGCACUGUUUGAUUUGUGACCUUGAUGUAAUAGGUAGGCUUGUGGGUUUUGUUUUUGUUUUUGUUUUAAUUUAAAGACAUUAAGACU` is reported as 0.754 ratio.
`GAGCUAAAGGAGUUAGCGUCUUUAUUUUUGUAUCAAAGAUAAAGGUUAUUUUGAAAUUCCUAGGGUUUUUACACAACUCCGAAAUCUGUUGCUUUUGUAAACAAAUUGUUUGCCCUUAGG` gave a bound/input enrichment of 0.408 ratio.
With `GUUAGGUCAUGACCCUUACAGGUUAGGCCAUGAUGCCUACAGGUUAGGGCAAGACCCUUAUAGAUUAGGCCAUGAUCCCUACAGACUAACUCCUGAUCCGUAUAGGAUGUCUCCUAGACC` the bound/input enrichment was 0.228 ratio.
With `CUCCCCGUAACCCCUAAAAUAGAACUUUUUAAAAUUGUGUCACCACCACUUCUAAAAAUUUAGCAAUAUUAGUAGAAAACACUAAGACAUUGUGCUCAUUGUUUUGCAAAUGAAAUAGUC` the bound/input enrichment was 3.62 ratio.

Sample 2 — method: protein binding microarray; form: double-stranded DNA, one strand shown; sample: in vitro; concentration: not given; relative to: not given; reading: higher = stronger binding
Target: Histone acetyltransferase KAT6A, winged helix 2, GST fusion (KAT6A, Homo sapiens, UniProt Q92794, residues 85-181)
Setting: 8-mer, flanks averaged, mean of 2 arrays, mostly near background
Construct (chain): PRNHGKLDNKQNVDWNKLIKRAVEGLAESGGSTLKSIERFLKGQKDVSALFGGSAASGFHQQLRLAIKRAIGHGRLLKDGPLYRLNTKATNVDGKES
`CCCCCCCC` has an E-score of -0.0276.
`AAGTTGCC` has an E-score of 0.141.
The E-score of `GAACCTAC` is reported as 0.0489.
With `AGTCCACC` the E-score was -0.022.
The E-score of `GTACCAAC` is reported as 0.133.
`AACGATGG` has an E-score of -0.18.
With `CCCTCGGC` the E-score was 0.209.
`CAGTGTAA` gave an E-score of -0.0192.
`ACTTAGAC` has an E-score of 0.0386.
The E-score of `TCTTAAAA` is reported as 0.046.
`CACCGGAG` gave an E-score of 0.00875.
`AATGCCGT` gave an E-score of 0.072.
For `TATTTGCA`, the E-score was -0.0382.
The E-score of `TGGCCGAA` is reported as 0.108.
`GCACCGCA` gave an E-score of 0.132.
The E-score of `CTTGAGGA` is reported as -0.0168.
`ACGTAAAG` has an E-score of -0.234.

Sample 3 — target: CCNB1, cyclin fold, Cln2 fusion (human); method: yeast growth competition, sequencing; sample: yeast; setting: strong parent motif; relative to: not given; reading: higher = stronger binding
Starting sequence: PKN2 docking peptide (human); VSAVQKLDFSDTM
`VSAVQKPDFSDTM [L7P]` — result for “normalised enrichment score”: 0.261.
Under “normalised enrichment score”, `VSAVQKLDFSDGM [T12G]` is recorded as 2.38.
Under “normalised enrichment score”, `VSAVQKLAFSDTM [D8A]` is recorded as 0.531.
Under “normalised enrichment score”, `VSAVQKLDFSDYM [T12Y]` is recorded as 2.27.
`VSAVQKLDFSDFM [T12F]`: “normalised enrichment score” 1.58.
`VSAVQKLDFSDLM [T12L]`: “normalised enrichment score” 1.97.
For `VSAVQKLDHSDTM [F9H]`, “normalised enrichment score” read -0.608.
`VSEVQKLDFSDTM [A3E]`: “normalised enrichment score” -0.0487.
`VSAVQKLDFSCTM [D11C]` — result for “normalised enrichment score”: 1.73.
`VSAVQYLDFSDTM [K6Y]`: “normalised enrichment score” 1.04.
`VSAVQKLDFKDTM [S10K]`: “normalised enrichment score” 1.24.
For `VSAVQKLPFSDTM [D8P]`, “normalised enrichment score” read 0.676.
For `VSFVQKLDFSDTM [A3F]`, “normalised enrichment score” read 1.03.
`VSAEQKLDFSDTM [V4E]` — result for “normalised enrichment score”: 0.341.
`VSAVQKLDFVDTM [S10V]`: “normalised enrichment score” 1.69.
For `VSAVQKLDFQDTM [S10Q]`, “normalised enrichment score” read 1.35.
`VSTVQKLDFSDTM [A3T]`: “normalised enrichment score” 1.2.
`VSAVQKLTFSDTM [D8T]`: “normalised enrichment score” 1.34.

Sample 4 — method: RNA Bind-n-Seq; form: RNA; sample: in vitro; concentration: 365 nM; relative to: no-protein control; reading: higher = stronger binding
Target: RNA binding protein fox-1 homolog 2, RRM domain, GST-SBP tag (RBFOX2, Homo sapiens, UniProt O43251-10, residues 100-194)
Setting: natural RNA segment, single round, ends assumed
All sequences stand within: GGGAGUUCUACAGUCCGACGAUC … UGGAAUUCUCGGGUGCCAA
Construct (chain): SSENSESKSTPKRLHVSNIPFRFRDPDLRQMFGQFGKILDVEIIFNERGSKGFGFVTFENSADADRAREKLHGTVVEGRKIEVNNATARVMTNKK
`AGGAAACCAAUUAGAUUCAAAUGUAGGAUAUUACAGGUUGGUUGAAAUCCCAUGUACAAAUAAAAUUCUAUGUCUGAAAGAUUCUUCUGUUUGAACUUAAGAAGAAUAAA` — result for “RBNS enrichment (R)”: 1.76.
For `GCCUUAUCUUGUGGCCUUCCAAAAUAGGUUGUUUGCCUGUGUGGAGACAACAGUGCGGGAGUCCUGAGUGCUGGCUGUGCAGCCAGUUAAGUGUUCAUGUUCUAGUGAGC`, “RBNS enrichment (R)” read 0.434.
Under “RBNS enrichment (R)”, `CACUGUUGUGGUCACAGCAGUGCCCUUGGACAGGGCAUUAAGGCUGACCCUGAAGGAGUGGUGCUGCCAGGCCUGUCCUGGCUUUCUGGGGUGUGCUGGGAGGAUUACCA` is recorded as 0.391.
`CAGGAAACAUUUCUCUUGUAAUUUAAGAAAGUUAAGUCUAUAAACCAGCAUCAAGUGAUGUCUAGCCUCCCCUGUGCAAUACAGCUAGUUGUAUUUGUUGUGUUUAAGAA`: “RBNS enrichment (R)” 0.653.
`CACCCCAGAAAAUCACUGUGAAAUUUCAUGAUUGGCUUAAAGUGAAGGAAAUAAAGGUAAAAUCACUUCAGAUCUCUAAUUAUCAAGCGAAGCUUUUAUUGUUACACUUC` — result for “RBNS enrichment (R)”: 0.396.
For `UGUUUCUUCCUGUGACUGUAGAGACAGUUCUAGACCUUUGUGAUAGAACUAAAAUGCUCUCUGUACUCUAGUCUCCUGCCUCCUCAGCUCUGCAAGUAGUUUAGUAGGAA`, “RBNS enrichment (R)” read 0.833.
`UUUAUUGUUUUUACUUUGACUGGAAUGUUUAUUGUGAACUGUAUUUAUUUUUAUACUUUGAUUUUCACUAGUUUUGCUUUUAUGUAAAAGUCAAAAUAAACUUUUCAUCC`: “RBNS enrichment (R)” 0.604.
`UGGCAAGAUGUUUUUUCGGCCCUUCAUCACUGAUUGCAUUUUCCAUACAGAAGAGACAUCAGGGGUGUGGGUAAAAUUGUGUGUGUGCCUCCUUGACGUGGACAAUCACU`: “RBNS enrichment (R)” 0.198.
Under “RBNS enrichment (R)”, `GAAGAACCUUCUGGGCCUAGAGGCAGACGCUGCAUUGCACUAUUCCAGUGUCUUCCACGGAGCCUCUGGGGCUCCUCCCUCACCUGGCAGCCCCUCCAGCUGCUGGUGAU` is recorded as 0.648.
`AUCUUCCUUCUGUGUUUUACUCGGCUCAUUGCUUCUCUGGAGACAAAUGCAAUGCUUCCUACCCCCGUCCUGUCACAGGCAGUCUGAGGACUCACCUUCACACGUGAGAC` — result for “RBNS enrichment (R)”: 0.337.
Under “RBNS enrichment (R)”, `UUAGCUAGAUUGUACAUACUUGCAGAUUUAACAAAAUUUUAGGGAAAUUGAAAAAGACAUGUAGAAUUUGUUGUCUUCUGCUAAGCACGAAAAGUUAAGAUAUCUGCUUA` is recorded as 1.66.
For `AGGCUCUCUGGAGCAGGGCCUGUAGUGUUAACAAGUUCUCUGGGUGGUUCUAUUCUGAGCACCCCUGUUGCCUCUGACGACCCCCCCCCCACCAAAGGGAAGCAGAGAAG`, “RBNS enrichment (R)” read 0.544.

Sample 5 — method: aptamer microarray, sandwich; form: DNA with 2'F-ANA; sample: in vitro; concentration: 200 nM; with: Cy3 exosite-II aptamer, 400 nM; reading: higher = stronger binding; sequence: GGTTGGTGTGGTTGG
Target: Prothrombin, mature alpha-thrombin (F2, Homo sapiens, UniProt P00734)
Setting: whole 15-mer aptamer, many near background
Under “mean fluorescence intensity”, `2'F-ANA at 4 5 6 8 9 12 13 14` is recorded as 46.6 a.u.
`2'F-ANA at 1 3 5 6 9 10 12 14` — result for “mean fluorescence intensity”: 55.6 a.u.
For `2'F-ANA at 1 2 3 5 7 11 12 13 15`, “mean fluorescence intensity” read 73.8 a.u.
`2'F-ANA at 2 5 7 9 10 11 12 14 15`: “mean fluorescence intensity” 47.3 a.u.
`2'F-ANA at 5 9 10 12 13 14`: “mean fluorescence intensity” 42 a.u.
For `2'F-ANA at 1 4 5 6 8 11 12 13 14`, “mean fluorescence intensity” read 47.9 a.u.
`2'F-ANA at 1 5 6 7 8 11 12 13`: “mean fluorescence intensity” 74.6 a.u.
Under “mean fluorescence intensity”, `2'F-ANA at 1 2 3 5 9 10 11 13` is recorded as 44.4 a.u.
Under “mean fluorescence intensity”, `2'F-ANA at 2 3 5 7 9 11 12 15` is recorded as 254 a.u.
`2'F-ANA at 1 4 7 8 9 11 12`: “mean fluorescence intensity” 232 a.u.
`2'F-ANA at 1 2 3 4 6 11 12 13 15`: “mean fluorescence intensity” 467 a.u.
Under “mean fluorescence intensity”, `2'F-ANA at 1 2 3 4 5 6 7 12 15` is recorded as 125 a.u.
`2'F-ANA at 1 2 3 5 6 8 9 12 14`: “mean fluorescence intensity” 46.4 a.u.
`2'F-ANA at 1 2 4 5 7 9 11 13 14 15` — result for “mean fluorescence intensity”: 145 a.u.
Under “mean fluorescence intensity”, `2'F-ANA at 1 2 3 7 8 11 12 13 14` is recorded as 99.2 a.u.
`2'F-ANA at 1 3 4 6 7 11 14 15` — result for “mean fluorescence intensity”: 63.8 a.u.
`2'F-ANA at 3 6 8 10 13 14` — result for “mean fluorescence intensity”: 353 a.u.
`2'F-ANA at 1 3 4 5 9 12 13 14 15` — result for “mean fluorescence intensity”: 48.6 a.u.
For `2'F-ANA at 2 4 5 6 7 11 12 13 15`, “mean fluorescence intensity” read 74.6 a.u.
For `2'F-ANA at 1 2 7 8 11`, “mean fluorescence intensity” read 190 a.u.
For `2'F-ANA at 2 3 6 7 9 10 11 13 15`, “mean fluorescence intensity” read 328 a.u.
Under “mean fluorescence intensity”, `2'F-ANA at 1 4 5 8 9 10 12` is recorded as 49.7 a.u.
`2'F-ANA at 1 3 7 9 14`: “mean fluorescence intensity” 90.6 a.u.
For `2'F-ANA at 1 2 4 6 7 9 15`, “mean fluorescence intensity” read 118 a.u.
Under “mean fluorescence intensity”, `2'F-ANA at 2 4 5 8 9 10 13 15` is recorded as 48.6 a.u.

Excerpt of the above (sample 2):
`CCCCCCCC` has an E-score of -0.0276.
`AAGTTGCC` has an E-score of 0.141.
The E-score of `GAACCTAC` is reported as 0.0489.
With `AGTCCACC` the E-score was -0.022.
The E-score of `GTACCAAC` is reported as 0.133.
`AACGATGG` has an E-score of -0.18.
With `CCCTCGGC` the E-score was 0.209.
`CAGTGTAA` gave an E-score of -0.0192.
